Measured values collected from several papers.
Compare with care: the assays were run in different laboratories. Several values in a cell are separate wells, animals, samples, runs or records. Numbers after ± are the reported error.
Sequence of UniProt P46093 (whole entry, looked up): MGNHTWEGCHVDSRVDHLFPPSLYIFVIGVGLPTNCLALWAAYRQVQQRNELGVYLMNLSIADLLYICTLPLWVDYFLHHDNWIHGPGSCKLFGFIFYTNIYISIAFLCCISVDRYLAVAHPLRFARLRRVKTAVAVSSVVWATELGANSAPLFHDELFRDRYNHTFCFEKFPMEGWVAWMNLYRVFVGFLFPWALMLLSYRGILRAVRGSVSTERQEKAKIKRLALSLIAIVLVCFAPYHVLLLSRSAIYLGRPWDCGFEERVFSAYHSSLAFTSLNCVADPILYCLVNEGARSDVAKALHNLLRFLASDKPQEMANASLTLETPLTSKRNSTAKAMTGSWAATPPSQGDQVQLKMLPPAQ
Sequence of UniProt P48147 (whole entry, looked up): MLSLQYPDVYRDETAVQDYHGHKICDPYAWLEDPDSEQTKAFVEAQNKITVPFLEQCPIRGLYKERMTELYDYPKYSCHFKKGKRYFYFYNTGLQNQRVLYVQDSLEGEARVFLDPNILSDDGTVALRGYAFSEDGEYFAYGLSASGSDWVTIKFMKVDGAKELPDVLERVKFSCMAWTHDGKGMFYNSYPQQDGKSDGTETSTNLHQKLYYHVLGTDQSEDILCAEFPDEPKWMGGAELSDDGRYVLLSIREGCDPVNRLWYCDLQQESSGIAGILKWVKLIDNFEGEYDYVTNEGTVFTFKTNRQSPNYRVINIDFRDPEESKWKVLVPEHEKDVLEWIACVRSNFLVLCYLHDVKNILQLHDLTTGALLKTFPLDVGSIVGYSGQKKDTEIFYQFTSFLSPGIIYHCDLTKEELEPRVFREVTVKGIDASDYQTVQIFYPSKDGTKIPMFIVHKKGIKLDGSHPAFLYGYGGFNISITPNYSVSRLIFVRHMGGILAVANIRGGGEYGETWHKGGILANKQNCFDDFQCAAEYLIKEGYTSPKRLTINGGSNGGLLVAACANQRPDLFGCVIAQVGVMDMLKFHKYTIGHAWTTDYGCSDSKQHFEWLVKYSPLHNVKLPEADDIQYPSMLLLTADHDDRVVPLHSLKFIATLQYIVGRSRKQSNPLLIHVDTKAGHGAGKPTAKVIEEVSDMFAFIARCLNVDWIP
Sequence of UniProt P07197 (whole entry, looked up): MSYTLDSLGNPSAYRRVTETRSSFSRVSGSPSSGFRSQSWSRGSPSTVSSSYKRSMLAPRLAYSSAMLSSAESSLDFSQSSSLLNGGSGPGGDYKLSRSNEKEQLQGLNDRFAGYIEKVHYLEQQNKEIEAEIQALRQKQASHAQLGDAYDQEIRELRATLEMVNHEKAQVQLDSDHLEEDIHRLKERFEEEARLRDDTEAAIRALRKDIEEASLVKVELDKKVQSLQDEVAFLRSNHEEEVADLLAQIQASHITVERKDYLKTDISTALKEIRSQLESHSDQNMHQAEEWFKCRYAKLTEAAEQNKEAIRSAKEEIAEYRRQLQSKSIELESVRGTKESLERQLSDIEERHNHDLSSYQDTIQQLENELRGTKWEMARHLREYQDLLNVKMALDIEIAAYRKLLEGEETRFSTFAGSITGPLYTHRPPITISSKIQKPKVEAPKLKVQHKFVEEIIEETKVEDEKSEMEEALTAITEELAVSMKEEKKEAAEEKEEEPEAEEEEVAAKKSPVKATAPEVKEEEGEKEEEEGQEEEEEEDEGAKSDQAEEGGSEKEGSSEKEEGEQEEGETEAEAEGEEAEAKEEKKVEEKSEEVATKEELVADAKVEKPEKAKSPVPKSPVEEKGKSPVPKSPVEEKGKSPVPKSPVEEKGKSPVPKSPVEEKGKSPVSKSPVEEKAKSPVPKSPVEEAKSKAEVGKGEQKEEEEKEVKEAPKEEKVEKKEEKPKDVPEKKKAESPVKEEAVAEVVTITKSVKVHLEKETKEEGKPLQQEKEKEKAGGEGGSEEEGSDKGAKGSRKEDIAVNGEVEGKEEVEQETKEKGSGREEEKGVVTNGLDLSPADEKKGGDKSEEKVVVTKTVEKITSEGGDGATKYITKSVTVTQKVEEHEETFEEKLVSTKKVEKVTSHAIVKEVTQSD

SMILES | target or system | assay | system | conditions | how to read | quantity | result
Nc1ncc(-c2nc(N3CCOCC3)nc(N3CCOCC3)n2)c(C(F)F)n1 | OVCAR-3 | – | – | 72 h | – | GI50 | 34 nM
CCN(CC)c1ccc(C=NNC(=O)CSc2nc3ccccc3c(=O)n2Cc2ccc(S(N)(=O)=O)cc2)c(O)c1 | UACC-257 | NCI five-dose screen | – | – | – | CC50 | > 100 µM
COc1c(CCC[P+](c2ccccc2)(c2ccccc2)c2ccccc2)cc2c(c1OC)OCO2.[I-] | HOP-92 | SRB | – | – | – | LC50 | -4.22 log M
COc1cc2c(Oc3ccc4[nH]c(C)cc4c3F)ccnc2cc1OCC1(N)CC1 | – | – | paediatric recurrent refractory sarcoma | 8 mg/kg | – | grade 3 Nausea | 0%
CN1CCN(C2(CNC3CCN(c4cccc(-c5cc6cc(F)ccc6[nH]5)c4)CC3)CCC2)CC1 | OVCAR-3 | – | – | – | – | CC50 | 5.87 µM
Oc1ccc2c3c1O[C@H]1[C@@H](O)CC[C@@]4(O)[C@@H](C2)N(CC2CCC2)CC[C@]314 | G-prodeshotein coupled receptor 4 (GPR4, Homo sapiens, UniProt P46093) | β-arrestin recruitment, TANGO luminescence | – | concentration not given | baseline: basal luminescence | log2 fold change | 0.088
C[C@H]1CN(c2n[nH]c3nc(N[C@H]4CC[C@H](NS(=O)(=O)CCC(F)(F)F)CC4)ncc23)CCO1 | Neurofilament medium polypeptide (Homo sapiens, UniProt P07197) | Kinobeads competition, refers to: NEFM | – | 0.8 µM, unit not given | baseline: vehicle | remaining binding | 1.06
COc1cc(CCC[P+](c2ccccc2)(c2ccccc2)c2ccccc2)c(OC)c2c1OCO2.[I-] | SK-MEL-5 | SRB | – | – | – | LC50 | -5.29 log M
CC[C@H](C)[C@@H]1NC(=O)[C@@H]2CCCN2C(=O)[C@H](CC(C)C)NC(=O)[C@H](CC(C)C)NC(=O)CNC(=O)[C@@H](NC(=O)[C@@H](NC(=O)[C@H](CC(=O)O)NC(=O)CNC(=O)[C@@H](NC(=O)[C@H](C)NC(=O)CNC(=O)[C@H](CCCCN)NC(=O)[C@H](CC(C)C)NC(=O)[C@H](CC(C)C)NC(=O)[C@H](CCCCN)NC(=O)CNC(=O)[C@@H](NC(=O)[C@@H](N)CC(C)C)C(C)C)C(C)C)C(C)C)CSSC[C@@H](C(=O)O)NC1=O | – | RNA-seq, refers to: novel.247 mRNA | mouse traumatic brain injury, frontal cortex and hippocampus | dose not given | baseline: TBI plus compound vs TBI | log2 fold change | -1.86
Oc1cc(Cl)ccc1Oc1ccc(Cl)cc1Cl | HepG2 | extracellular flux, refers to: oxygen consumption rate | – | 1 h, representative mode | – | point of departure | 1.38 µM
CC[C@H](C)[C@H](NC(=O)[C@H](Cc1ccccc1)NC(=O)[C@H](CCC(=O)O)NC(=O)[C@H](CCCNC(=N)N)NC(=O)[C@H](C)NC(=O)[C@H](C)NC(=O)[C@H](CCC(N)=O)NC(=O)[C@H](CCC(=O)O)NC(=O)[C@H](CCC(=O)O)NC(=O)[C@H](CC(C)C)NC(=O)[C@H](Cc1ccc(O)cc1)NC(=O)[C@H](CO)NC(=O)[C@H](CO)NC(=O)[C@@H](NC(=O)[C@H](CC(=O)O)NC(=O)[C@H](CO)NC(=O)[C@@H](NC(=O)[C@H](Cc1ccccc1)NC(=O)[C@@H](NC(=O)CNC(=O)[C@H](CCC(=O)O)NC(=O)[C@H](C)NC(=O)CCc1c[nH]cn1)[C@@H](C)O)[C@@H](C)O)C(C)C)C(=O)N[C@@H](C)C(=O)N[C@@H](Cc1c[nH]c2ccccc12)C(=O)N[C@@H](CC(C)C)C(=O)N[C@H](C(=O)N[C@@H](CCCNC(=N)N)C(=O)NCC(=O)N[C@@H](CCCNC(=N)N)C(=O)N[C@@H](CCCCNC(=O)COCCOCCNC(=O)COCCOCCNC(=O)CC[C@H](NC(=O)CCCCCCCCCCCCCCCCC(=O)O)C(=O)O)C(=O)NCC(=O)NCC(=O)N[C@@H](CO)C(=O)N[C@@H](CCCCNc1c(NCCCCCN(O)C(=O)CCC(=O)NCCCCCN(O)C(=O)CCC(=O)NCCCCCN(O)C(C)=O)c(=O)c1=O)C(=O)O)C(C)C [zirconium-89 labelled] | – | – | rat, liver | sc, 3 nmol/kg, 4 h, ex vivo | – | tissue uptake | 0.37 %ID/g
C[C@]1(CO)Cc2ncn(-c3ccc(C#N)c(Cl)c3)c2C(=O)O1 | – | – | human, Chinese | 3 mg single dose | – | subjects with any TEAE | 16.7%
CC(C)N1CCC(NC2CCN(c3cccc(-c4cc5cc(F)ccc5[nH]4)c3)CC2)CC1 | OVCAR-3 | – | – | – | – | CC50 | 6.03 µM
O=C1N(Cc2ccccc2Cl)c2ccccc2C12NN=C(c1ccccc1)S2 (stereo not shown) | MDA-MB-468 | gene expression array, refers to: EIF4A2 mRNA | – | 10 µM, 12 h | baseline: untreated, down | fold change | 1.61
Nc1nc2nc[nH]c2c(=S)[nH]1 | HCT-116 3-6 | clonogenic | – | 0.625 µM, 10 days | – | surviving fraction | 0.861
Nc1ncnc2c1ncn2[C@@H]1O[C@@H]2COP(=O)(O)O[C@H]3[C@@H](O)[C@H](n4cnc5c(=O)[nH]cnc54)O[C@@H]3COP(=O)(O)O[C@H]2[C@H]1O | HFF-1 | RNA sequencing, refers to: RHO GTPases activate CIT | – | downregulated pathway | baseline: Zika virus alone | pathway fold enrichment | 15
Cn1cc2cc(C(F)(F)c3nnc4ccc(-c5cnn(C6CC6)c5)nn34)c(F)cc2n1 | MKN-45 | annexin V/PI flow cytometry | – | 20 nM, 48 h | – | late apoptotic cells | 29.6% and 20.5% and 27.3%
O=C1CCP(=S)(c2ccccc2)CC1 | HCT-116 | Annexin V-FITC/PI flow cytometry | – | IC50, 72 h | – | late apoptotic cells | 80.2%
C/C=C(/C)C(=O)O[C@H]1C(C)=C2[C@H]([C@@H]1OC(=O)CCCCCCC)[C@@](C)(OC(C)=O)C[C@H](OC(=O)CCC)[C@@]1(O)[C@H]2OC(=O)[C@@]1(C)O | HEK-293T | RNA-seq GSEA, refers to: Hallmark KRAS signaling up | – | 500 nM, 6 h | direction not given | normalized enrichment score | 1.19
Cn1nccc1Nc1nccc(-c2ccn([C@H](CO)c3ccc(Cl)c(F)c3)c(=O)c2)n1 | HCT116 | IncuCyte | – | concentration not given, 20 (unit not given) | – | PI-positive cells | 3.67 count and 5.33 count and 4.58 count
CC(c1ccccc1)(c1ccc(O)cc1)c1ccc(O)cc1 | HepG2 spheroids | Hoechst flow cytometry | – | 0.01 µM, 96 h | – | G2 phase cells | 15.4 ± 7.51%
COc1c(C)c2c(c(O)c1C/C=C(\C)CCC(=O)O)C(=O)OC2 | A-375 | cell proliferation | skin cancer | – | – | IC50 | 933 nM
C=C1CC[C@@H]2[C@](C)(CCC[C@]2(C)C(=O)O)[C@H]1CC/C(C)=C/CO | neuroblastoma M2 (+) | western blot | – | IC50 | baseline: untreated | PCNA level | decreased
CO[C@H]1C[C@@H]2CC[C@@H](C)[C@@](O)(O2)C(=O)C(=O)N2CCCC[C@H]2C(=O)O[C@H]([C@H](C)C[C@@H]2CC[C@@H](OC(=O)NCCOCCOCCOCCOCCOCCOCCOCCOCCC(=O)N3CCc4cc(Cn5nc(-c6ccc7oc(N)nc7c6)c6c(N)ncnc65)ccc4C3)[C@H](OC)C2)C[C@@H](O)[C@H](C)/C=C(\C)[C@@H](O)[C@@H](OC)C(=O)[C@H](C)C[C@H](C)/C=C/C=C/C=C/1C | – | – | patients with advanced solid tumours | intravenous, 10 mg weekly, grade 3 or higher | – | dysgeusia incidence | 0%
C[C@@H](O)[C@H](NC(=O)[C@@H]1CSSC[C@H](NC(=O)[C@@H](Cc2ccccc2)NC(=O)CN2CCN(CC(=O)[O-])CCN(CC(=O)[O-])CCN(CC(=O)[O-])CC2)C(=O)N[C@@H](Cc2ccc(O)cc2)C(=O)N[C@H](Cc2c[nH]c3ccccc23)C(=O)N[C@@H](CCCCN)C(=O)N[C@@H]([C@@H](C)O)C(=O)N1)C(=O)O.[177Lu+3] | MEC1 treated with 100 µM zebularine | gamma counter | serum-free RPMI | 60 min, 37 °C | – | uptake | 1.15%
Cc1sc2c(c1C)C(c1ccc(Cl)cc1)=N[C@@H](CC(N)=O)c1nnc(C)n1-2 | OCI-Ly1 | – | – | 0.1 µM, 120 h | – | viability | 46.2%
COc1cc(Nc2ncc(F)c(Nc3ccc4c(n3)NC(=O)C(C)(C)O4)n2)cc(OC)c1OC | Prolyl endopeptidase (PREP, Homo sapiens, UniProt P48147) | enzyme activity, inhibitor | – | – | – | IC50 | > 10000 nM
Oc1ccc(C(c2ccc(O)cc2)(C(F)(F)F)C(F)(F)F)cc1 | HepG2 spheroids | Hoechst flow cytometry | – | 0.01 µM, 96 h | – | G1 phase cells | 71.8 ± 2.4%

A few entries again:
SMILES | target or system | assay | system | conditions | how to read | quantity | result
COc1cc2c(Oc3ccc4[nH]c(C)cc4c3F)ccnc2cc1OCC1(N)CC1 | – | – | paediatric recurrent refractory sarcoma | 8 mg/kg | – | grade 3 Nausea | 0%
CO[C@H]1C[C@@H]2CC[C@@H](C)[C@@](O)(O2)C(=O)C(=O)N2CCCC[C@H]2C(=O)O[C@H]([C@H](C)C[C@@H]2CC[C@@H](OC(=O)NCCOCCOCCOCCOCCOCCOCCOCCOCCC(=O)N3CCc4cc(Cn5nc(-c6ccc7oc(N)nc7c6)c6c(N)ncnc65)ccc4C3)[C@H](OC)C2)C[C@@H](O)[C@H](C)/C=C(\C)[C@@H](O)[C@@H](OC)C(=O)[C@H](C)C[C@H](C)/C=C/C=C/C=C/1C | – | – | patients with advanced solid tumours | intravenous, 10 mg weekly, grade 3 or higher | – | dysgeusia incidence | 0%
Oc1cc(Cl)ccc1Oc1ccc(Cl)cc1Cl | HepG2 | extracellular flux, refers to: oxygen consumption rate | – | 1 h, representative mode | – | point of departure | 1.38 µM
C/C=C(/C)C(=O)O[C@H]1C(C)=C2[C@H]([C@@H]1OC(=O)CCCCCCC)[C@@](C)(OC(C)=O)C[C@H](OC(=O)CCC)[C@@]1(O)[C@H]2OC(=O)[C@@]1(C)O | HEK-293T | RNA-seq GSEA, refers to: Hallmark KRAS signaling up | – | 500 nM, 6 h | direction not given | normalized enrichment score | 1.19
